Results of several laboratories.
Numbered parts are unrelated; each lists some results of a single study.

Series 1 — technique: aptamer microarray, sandwich; molecule type: DNA with 2'F-ANA; sample: in vitro; concentration: 200 nM; added: Cy3 exosite-II aptamer, 400 nM; reading: higher = stronger binding; oligonucleotide: GGTTGGTGTGGTTGG
Target: Prothrombin, mature alpha-thrombin (F2, Homo sapiens, UniProt P00734)
Notes: whole 15-mer aptamer, many near background
Modification | mean fluorescence intensity
2'F-ANA at 1 3 5 7 8 12 13 | 100 a.u.
2'F-ANA at 1 3 5 6 7 11 14 15 | 46.4 a.u.
2'F-ANA at 4 6 7 8 9 10 11 12 13 15 | 79.2 a.u.
2'F-ANA at 1 5 7 9 12 13 14 | 47.1 a.u.
2'F-ANA at 2 3 4 5 12 14 15 | 53.7 a.u.
2'F-ANA at 1 4 7 8 10 11 | 50.1 a.u.
2'F-ANA at 3 5 6 7 8 9 12 15 | 232 a.u.
2'F-ANA at 1 2 4 8 14 | 59.2 a.u.
2'F-ANA at 1 2 6 7 8 13 | 146 a.u.
2'F-ANA at 1 3 5 7 8 10 12 13 14 | 46.1 a.u.
2'F-ANA at 2 4 5 6 7 8 9 13 14 | 45.7 a.u.
2'F-ANA at 2 4 9 12 13 14 | 114 a.u.
2'F-ANA at 3 6 9 10 11 12 14 15 | 321 a.u.
2'F-ANA at 1 3 7 10 11 15 | 79 a.u.
2'F-ANA at 1 4 14 | 49.1 a.u.

Series 2 — technique: RNA Bind-n-Seq; molecule type: RNA; sample: in vitro; concentration: not given; notes: RNA with constant flanks, ends assumed; relative to: input RNA pool; reading: higher = stronger binding
Target: RING finger protein unkempt homolog, zinc fingers 1-6, GST-SBP tag (UNK, Homo sapiens, UniProt Q9C0B0, residues 30-357)
Constant ends, left off below: GGGAGUUCUACAGUCCGACGAUC … CAACAGAGGAUUGAGCAUCA
Construct (chain): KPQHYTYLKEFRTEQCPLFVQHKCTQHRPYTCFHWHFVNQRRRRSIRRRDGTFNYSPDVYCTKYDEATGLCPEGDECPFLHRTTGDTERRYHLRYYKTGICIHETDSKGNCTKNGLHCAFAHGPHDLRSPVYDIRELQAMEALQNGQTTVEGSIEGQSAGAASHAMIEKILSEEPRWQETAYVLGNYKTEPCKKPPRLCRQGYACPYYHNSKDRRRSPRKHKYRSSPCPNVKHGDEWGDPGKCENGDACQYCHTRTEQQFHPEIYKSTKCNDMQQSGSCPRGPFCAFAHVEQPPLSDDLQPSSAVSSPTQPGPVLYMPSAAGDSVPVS
Oligonucleotide | bound/input enrichment [ratio]
ACUGGUGUGAUCAUUGUUGGACUGCAGGGGGAAGCUGAGCGUGGACCCCGCUUUCCCCGGGCCCGCAGUGAGGCUACGAUUCGUGAGAAUGCGCCCCCAGGGACUCCUAUUGUCUCCCCC | 0.0968
AGUAUCUACCUGCUGUCACGGCACUGUCCCUGUCAACUUUGUGUAGGGACGUGUGAGGGAUACCGGGUCCCUCUGACACCUGCACACUGUCCAGGUGGUGAGCCAUCUGCUUCAGCACGU | 0.0975
AUGUACGAGCAUAAUCGAAACGUCACGUGUUUAGUUUUUAUAUGUGUGUACAUAAUUAUACACCGAGAUAGACUUGUGUAUACACCCUUCGCGCGCACACAUACACACACUCACAUCCUC | 0.751
GUGCAGCUAAGGAAACAGCAUGCAGUCAUGAUUGUUAGAUGAGAGACACUAAAGUACAGUCCGCUGCCAACAAGUAUUAAGGAUUACUCUGCAAAACUUCCCAGUUGCCAGCUGCCAGAG | 0.371
GGUGCAAAAAGGCAGAAGGCCAGGUUGACAGUGUUUUGUCUUGUCCCUCCGUGUUUUCCCGAAUGUUUUACACCUGGCUGGUGAAUCUGCUGAGACCAGGUUUUCUGAGACUUGAUUAAA | 0.105
UUUGAUUUCUUUUUCUUUUUUUCUCUUCUUGUUUUUGUUUUUCUUUUUUGUUUGUUUUUUCCGCAUGCAAAUAUGUUGGUACGUUAUGUCCUGGUUUAAAAGGAUUAAAAAUUUAAAAGU | 0.574

Series 3 — technique: EMSA with sequencing; molecule type: double-stranded DNA, one strand shown; sample: in vitro; concentration: 10 and 20 nM; relative to: negative control set to 0; reading: higher = stronger binding
Target: Hepatocyte nuclear factor 3-alpha (Foxa1, Mus musculus, UniProt P35582, residues 1-468, full length assumed)
Notes: whole designed probe, mean of two concentrations, ends assumed
Constant ends, left off below: GTGAGCGGTGCCCATTGATGGGGAAC … TTTCACTGGGATCGTGGGGAC
Construct (chain): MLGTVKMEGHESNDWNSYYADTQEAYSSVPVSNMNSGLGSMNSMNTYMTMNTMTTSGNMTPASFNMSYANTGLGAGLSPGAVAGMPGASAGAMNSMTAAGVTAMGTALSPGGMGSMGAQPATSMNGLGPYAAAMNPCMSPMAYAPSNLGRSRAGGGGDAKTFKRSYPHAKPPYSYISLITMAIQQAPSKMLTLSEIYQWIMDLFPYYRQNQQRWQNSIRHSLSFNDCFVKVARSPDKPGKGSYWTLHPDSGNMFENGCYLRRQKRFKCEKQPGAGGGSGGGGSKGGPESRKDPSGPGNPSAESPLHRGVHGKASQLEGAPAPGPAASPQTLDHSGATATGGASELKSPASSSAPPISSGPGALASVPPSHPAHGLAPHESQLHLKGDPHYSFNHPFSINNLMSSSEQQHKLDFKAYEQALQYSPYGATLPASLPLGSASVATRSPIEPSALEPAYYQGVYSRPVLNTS
Oligonucleotide | normalised bound fraction
TCCACAGTAGAAACGAAGGAGATGACAGATACCCCGGCACCAAAACTGACACCAGGTTTTTGTTGCTTCTTCCACTATATAATGGAGAAGTTCTGTTTACTCTATACTGTTAGTTGTGCAACACATTGGCTTAAGGAAACCCAAGAAACTGAATCACATCAAAGGTATGTCAGAGGTATGTGAACCAGAGCAA | 0.3 ratio
ATCTTCCCCCTCTTCCTTGCCCCACCAGCTCACCTTCCCGGGTTATTTGCAGATAGGAAAATAAATAAAGCCGGCATTCGTTAACGCAGTTCTGGCGCAAACTGCTGTTTGCTCTGGATGAATCATGGTCCTTTGGCGACGCCAGGCTCCGGGAGAGCAAAGCACCGTGTCAGGGCCATGATCCGGGCTCGCC | 0.343 ratio
AATTTTTATTTGAAGGTGCCATTTTTCAACATATTCAGATGCTTGTGAGTGCCATTGATTCTGTATCATATGAACAATGGCAATACCTTCCATGTTTACATAATATTAAAAACCATGTTAAGACTGAATATTTGGTGTAATGGTGCATCACATTATTCTAGCTTCCATACTAGTTGTTTTATTTGTTTGTTTT | 0.544 ratio
AACATGCAGAGCTTTCTGATACAAACAAAAGCAGCTTCACCACCAAACAAATGCTAATTCTTTTTTAACGCTCTTATTTCCCTGCAGATCTCTGTTTACATTGAAGAAAATGGTTCTATTTTTTTGTATGCTAAAATACTGAAACAAATTGCTTTGAAAGAGAGAGGAAAAAGGGGTGGGAGAGTTTCCTGCT | 0.348 ratio
GTCCTTTTTAACACGCAGCGGTTGTGGGGACAAGGTTTCCGAGGAGGCGGGAGCGAGCGACGGCCCCCGCCTCCCACACGCCCTCTGCTTTGGTAATCTAGGAGACTCCCGCCCGCAGGCTGTAAATGAGGCACGAGCTTGGGGGCAGCGCCAGGGCGCCTGGCGTCACTGTTCAAAAAGGCCTCTTATTGGT | -0.0697 ratio

Series 4 — technique: protein-binding microarray; molecule type: double-stranded DNA, one strand shown; sample: in vitro; concentration: 2540 nM top; notes: 60-bp whole probe; added: salmon DNA 0.4 mg/ml; relative to: random background probes; reading: higher = stronger binding; constant ends, left off below: GCCTAGCAC … GTCTTGATTCGCTTGACGCTGCTG
Target: Interferon regulatory factor 3, full length, phosphomimetic (IRF3, Homo sapiens, UniProt Q14653, residues 1-427, S386D/S396D/S398D/S402D/T404D/S405D)
Construct (chain): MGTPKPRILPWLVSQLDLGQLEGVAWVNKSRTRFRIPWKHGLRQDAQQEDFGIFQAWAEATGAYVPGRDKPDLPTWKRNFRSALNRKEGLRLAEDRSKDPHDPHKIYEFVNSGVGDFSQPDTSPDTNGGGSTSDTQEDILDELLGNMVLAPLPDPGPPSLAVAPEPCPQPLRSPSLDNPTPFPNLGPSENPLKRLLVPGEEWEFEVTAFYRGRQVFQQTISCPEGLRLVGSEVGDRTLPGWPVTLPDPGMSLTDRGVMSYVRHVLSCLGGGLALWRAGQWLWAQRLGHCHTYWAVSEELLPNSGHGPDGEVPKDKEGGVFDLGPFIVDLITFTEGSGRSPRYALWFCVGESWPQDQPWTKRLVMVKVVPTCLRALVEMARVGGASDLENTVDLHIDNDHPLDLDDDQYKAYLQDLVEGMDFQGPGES
Oligonucleotide | fitted relative affinity [z-score]
TTAGATATCTGGTATCGATTAGTGCTA | 0.385
TTAGCTCTCAGTCTCGATTAGTGCTAG | 0.289
GACAGTATCCTTCTCCTGACGTGCTAG | 7.99
GACGATATCGGGTTTCGAAACGTGCTA | 2.33
GATGAACTGGGGTATCGAGACGTGCTA | -0.716
GACGATTTCGGGTTACGAGACGTGCTA | 2.41
GACAGTATCGGGACTGGGGACGTGCTA | 1.72
GACGGTATCGACACTGGTGACGTGCTA | 0.563
TCCCTTATAAATAGCACAGGGTGCTAG | 1
GACGCTATCAGTTTCGAGACGTGCTAG | 3.3
GACGAACTGGGGATTCGAGACGTGCTA | -0.377
GACGAACTGGGGTTTCGTGACGTGCTA | -0.0385
TTAGGTTTCAACTATCGGTTAGTGCTA | 1.18
GACGGTTCCGGTTTCGGGAAGTGCTAG | 5.94
GACGATTCCAGTTTCAAGACGTGCTAG | 2.25
GACGGTTTCGACTAGCGGGACGTGCTA | 2.57
TGGATGGTCCTGGTTTCATGGGTGCTA | -0.405
GGAGTGGGAAGCTTCGCTCCGTGCTAG | -0.498
AACTCTCTAATTTTGAGACTGTGCTAG | 0.459

A few entries again (series 4):
Oligonucleotide | fitted relative affinity [z-score]
TTAGATATCTGGTATCGATTAGTGCTA | 0.385
GACGATTTCGGGTTACGAGACGTGCTA | 2.41
GACGAACTGGGGATTCGAGACGTGCTA | -0.377
GACGATATCGGGTTTCGAAACGTGCTA | 2.33
